Experimental data of several laboratories.
Parts stem from different laboratories: compare values within a part only. “And” joins repeats or separate records; there may be more than shown.
UniProt O14578, sequence (whole entry, looked up): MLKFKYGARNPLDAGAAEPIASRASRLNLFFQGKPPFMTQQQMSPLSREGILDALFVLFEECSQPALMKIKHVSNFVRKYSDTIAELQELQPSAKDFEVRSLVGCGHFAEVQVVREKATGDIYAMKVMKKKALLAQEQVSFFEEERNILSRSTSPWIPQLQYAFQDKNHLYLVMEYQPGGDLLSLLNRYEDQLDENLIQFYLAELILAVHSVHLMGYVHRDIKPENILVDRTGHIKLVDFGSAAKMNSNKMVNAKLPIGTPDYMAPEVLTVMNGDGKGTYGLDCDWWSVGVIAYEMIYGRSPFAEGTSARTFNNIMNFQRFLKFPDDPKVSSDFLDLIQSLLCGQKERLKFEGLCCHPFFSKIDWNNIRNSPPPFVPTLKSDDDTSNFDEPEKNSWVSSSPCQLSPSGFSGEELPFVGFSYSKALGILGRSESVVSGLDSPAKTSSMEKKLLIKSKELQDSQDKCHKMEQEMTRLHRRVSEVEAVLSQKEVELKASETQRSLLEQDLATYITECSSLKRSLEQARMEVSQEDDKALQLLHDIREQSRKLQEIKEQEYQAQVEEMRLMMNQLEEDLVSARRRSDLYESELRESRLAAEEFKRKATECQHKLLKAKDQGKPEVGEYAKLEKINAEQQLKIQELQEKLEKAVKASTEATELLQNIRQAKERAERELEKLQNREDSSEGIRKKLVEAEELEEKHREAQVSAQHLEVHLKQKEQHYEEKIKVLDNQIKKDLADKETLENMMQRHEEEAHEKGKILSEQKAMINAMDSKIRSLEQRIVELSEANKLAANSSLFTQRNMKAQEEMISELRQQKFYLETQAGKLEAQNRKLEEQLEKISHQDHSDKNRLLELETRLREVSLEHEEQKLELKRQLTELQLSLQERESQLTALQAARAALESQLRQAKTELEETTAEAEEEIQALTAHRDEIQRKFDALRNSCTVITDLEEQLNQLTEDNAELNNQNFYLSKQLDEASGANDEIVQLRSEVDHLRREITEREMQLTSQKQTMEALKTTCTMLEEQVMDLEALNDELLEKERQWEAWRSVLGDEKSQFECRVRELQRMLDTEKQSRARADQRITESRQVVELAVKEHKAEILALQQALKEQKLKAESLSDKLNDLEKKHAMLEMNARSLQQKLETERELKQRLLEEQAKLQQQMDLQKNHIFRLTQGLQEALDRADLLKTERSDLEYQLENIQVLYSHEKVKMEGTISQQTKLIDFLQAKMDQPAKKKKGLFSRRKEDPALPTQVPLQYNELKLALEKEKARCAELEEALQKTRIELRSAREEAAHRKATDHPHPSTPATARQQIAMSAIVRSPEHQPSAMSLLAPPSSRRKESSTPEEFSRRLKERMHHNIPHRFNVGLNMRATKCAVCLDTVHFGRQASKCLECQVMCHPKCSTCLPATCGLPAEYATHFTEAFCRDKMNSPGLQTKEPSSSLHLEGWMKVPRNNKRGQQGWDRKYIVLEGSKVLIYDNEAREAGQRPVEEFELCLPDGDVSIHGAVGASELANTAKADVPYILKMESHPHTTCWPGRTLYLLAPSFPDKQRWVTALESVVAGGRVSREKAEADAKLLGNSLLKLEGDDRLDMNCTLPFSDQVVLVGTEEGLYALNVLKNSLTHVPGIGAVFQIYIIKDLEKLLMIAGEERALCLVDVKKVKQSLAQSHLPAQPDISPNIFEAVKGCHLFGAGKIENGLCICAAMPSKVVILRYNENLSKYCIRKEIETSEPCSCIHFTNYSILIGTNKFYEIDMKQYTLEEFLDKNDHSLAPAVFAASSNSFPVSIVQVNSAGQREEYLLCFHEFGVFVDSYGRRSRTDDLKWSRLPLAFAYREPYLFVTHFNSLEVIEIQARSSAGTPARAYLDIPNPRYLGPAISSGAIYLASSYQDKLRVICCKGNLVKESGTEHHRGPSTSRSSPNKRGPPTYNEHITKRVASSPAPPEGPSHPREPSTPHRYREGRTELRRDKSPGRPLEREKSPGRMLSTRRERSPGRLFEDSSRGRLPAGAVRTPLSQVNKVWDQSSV
UniProt O15075, sequence (whole entry, looked up): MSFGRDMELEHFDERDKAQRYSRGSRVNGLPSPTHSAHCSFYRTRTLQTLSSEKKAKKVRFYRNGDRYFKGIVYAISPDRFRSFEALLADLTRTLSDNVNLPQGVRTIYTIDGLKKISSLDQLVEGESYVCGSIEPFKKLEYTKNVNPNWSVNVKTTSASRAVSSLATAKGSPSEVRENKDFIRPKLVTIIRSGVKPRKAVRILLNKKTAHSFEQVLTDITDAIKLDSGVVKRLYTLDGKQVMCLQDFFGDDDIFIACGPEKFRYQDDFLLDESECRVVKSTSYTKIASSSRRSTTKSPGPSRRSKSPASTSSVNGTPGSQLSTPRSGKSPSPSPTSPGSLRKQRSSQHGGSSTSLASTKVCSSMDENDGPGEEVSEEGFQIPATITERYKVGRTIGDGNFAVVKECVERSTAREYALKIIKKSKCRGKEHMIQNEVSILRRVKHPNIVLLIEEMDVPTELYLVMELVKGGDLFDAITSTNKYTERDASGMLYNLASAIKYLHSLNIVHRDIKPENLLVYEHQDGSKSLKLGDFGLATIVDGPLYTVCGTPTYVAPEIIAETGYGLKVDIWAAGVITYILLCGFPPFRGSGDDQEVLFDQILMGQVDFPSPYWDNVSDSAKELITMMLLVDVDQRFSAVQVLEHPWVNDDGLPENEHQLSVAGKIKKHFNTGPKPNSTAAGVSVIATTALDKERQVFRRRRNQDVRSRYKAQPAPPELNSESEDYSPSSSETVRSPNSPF
UniProt P11802, sequence (whole entry, looked up): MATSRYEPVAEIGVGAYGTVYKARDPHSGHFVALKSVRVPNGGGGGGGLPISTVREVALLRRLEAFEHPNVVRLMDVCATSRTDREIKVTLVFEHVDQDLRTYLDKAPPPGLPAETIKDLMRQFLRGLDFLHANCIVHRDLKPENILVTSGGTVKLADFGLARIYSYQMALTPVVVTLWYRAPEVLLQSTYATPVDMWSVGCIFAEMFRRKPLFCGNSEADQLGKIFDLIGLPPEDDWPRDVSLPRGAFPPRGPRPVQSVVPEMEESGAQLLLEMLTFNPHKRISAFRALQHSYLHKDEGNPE
UniProt P37173, sequence (whole entry, looked up): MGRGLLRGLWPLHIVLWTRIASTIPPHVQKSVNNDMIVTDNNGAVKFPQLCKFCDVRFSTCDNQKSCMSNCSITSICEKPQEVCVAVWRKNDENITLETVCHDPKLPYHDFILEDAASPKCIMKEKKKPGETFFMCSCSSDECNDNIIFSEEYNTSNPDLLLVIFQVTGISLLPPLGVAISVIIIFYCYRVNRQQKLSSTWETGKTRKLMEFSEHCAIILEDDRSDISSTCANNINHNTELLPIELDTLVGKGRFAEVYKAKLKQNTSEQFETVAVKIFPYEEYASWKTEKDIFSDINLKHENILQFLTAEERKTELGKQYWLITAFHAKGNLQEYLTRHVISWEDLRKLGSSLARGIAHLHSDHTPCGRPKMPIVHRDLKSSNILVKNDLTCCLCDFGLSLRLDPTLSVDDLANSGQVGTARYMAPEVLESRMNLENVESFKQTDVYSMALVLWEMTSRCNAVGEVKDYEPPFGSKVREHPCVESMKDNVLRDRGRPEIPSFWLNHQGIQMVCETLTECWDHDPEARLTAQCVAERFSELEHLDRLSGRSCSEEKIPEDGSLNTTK

Set 1
SMILES: C[C@H](c1cccc(C#N)c1)n1cc(Cl)cc(C(N)=O)c1=N
Read-out: cell-free assay
Method: competition with immobilised ligand
Concentration: 1 µM
Quantity: remaining binding
DYRK1A (Homo sapiens, UniProt Q13627): 65%
SRC (Homo sapiens, UniProt P12931): 88%
LTK (Homo sapiens, UniProt P29376): 99%
DCLK1 (Homo sapiens, UniProt O15075): 76%
EPHB6 (Homo sapiens, UniProt O15197): 87%
CIT (Homo sapiens, UniProt O14578): 96%
MAPK9 (Homo sapiens, UniProt P45984): 96%
TGFBR2 (Homo sapiens, UniProt P37173): 100%
Cyclin-dependent kinase 4, with cyclin D1 (CDK4, Homo sapiens, UniProt P11802): 97%

Set 2
Species: mouse
Matrix: microsomes or S9
Concentration: 2 µM
Time: 0.5 h
Quantity: remaining compound
Cn1nccc1-c1ccnc2nc(Cc3ccc4c(c3)CCC(C)(C)O4)nn12: 6.96%
CCS(=O)(=O)Nc1ccc(-n2nc(C)c(-c3ccc(Cl)cc3)cc2=O)cc1: 39.9%
Cc1ccsc1C1Nc2ccc3ncccc3c2C2=C1C(=O)CCC2 (centres unmarked): 21.8%
COc1ccc(C2N=C(O)c3ccccc3O2)c(OC)c1OC (centres unmarked): 1.15%
COC(=O)C(C)NC(=O)C12CC3(C)CC(C)(CC(C)(C3)C1)C2 (centres unmarked): 0.014%
Cn1c(=O)c2c(n(C)c1=O)n(CC(=O)NC(C)(C)C)c(=O)n2C: 63.1%
CNC(=O)c1cc(Cl)cc(C)c1NC(=O)c1cc(Br)nn1-c1c(F)c(F)cc(F)c1F: > 99%
O=C(NC1(c2nnc[nH]2)CCC1)c1cncc(F)c1: 97.1%

Set 3
Cell line: mouse MPNST tumor cells
Method: high-content immunofluorescence imaging
Item: nuclear SOX9
Concentration: 10 µM
Time: 12 h
Setting: mean of 2 replicates
Baseline: DMSO control
Direction: higher = more nuclear SOX9
Quantity: nuclear SOX9 intensity
C[C@@]1(O)[C@H](O)[C@@H](CO)O[C@H]1n1cnc2c(NC3CCCC3)nc(Cl)nc21: 93.9 % of DMSO
O=C(NCC(=O)N1CCCCC1)Nc1ccc2nnsc2c1: 92.1 % of DMSO
CC(C)(Sc1cc(C(C)(C)C)c(O)c(C(C)(C)C)c1)Sc1cc(C(C)(C)C)c(O)c(C(C)(C)C)c1: 118 % of DMSO and 99.7 % of DMSO
CCCCCCNC(=O)n1cc(F)c(=O)[nH]c1=O: 108 % of DMSO
CNC[C@H](O)c1ccc(O)c(O)c1: 101 % of DMSO
CN1C(C(=O)Nc2ccccn2)=C(O)c2ccccc2S1(=O)=O: 104 % of DMSO
CN1CCC[C@@H]1Cc1c[nH]c2ccc(CCS(=O)(=O)c3ccccc3)cc12: 117 % of DMSO

Set 4
Target: Insulin receptor (INSR, Homo sapiens, UniProt P06213)
UniProt P06213, sequence (whole entry, looked up): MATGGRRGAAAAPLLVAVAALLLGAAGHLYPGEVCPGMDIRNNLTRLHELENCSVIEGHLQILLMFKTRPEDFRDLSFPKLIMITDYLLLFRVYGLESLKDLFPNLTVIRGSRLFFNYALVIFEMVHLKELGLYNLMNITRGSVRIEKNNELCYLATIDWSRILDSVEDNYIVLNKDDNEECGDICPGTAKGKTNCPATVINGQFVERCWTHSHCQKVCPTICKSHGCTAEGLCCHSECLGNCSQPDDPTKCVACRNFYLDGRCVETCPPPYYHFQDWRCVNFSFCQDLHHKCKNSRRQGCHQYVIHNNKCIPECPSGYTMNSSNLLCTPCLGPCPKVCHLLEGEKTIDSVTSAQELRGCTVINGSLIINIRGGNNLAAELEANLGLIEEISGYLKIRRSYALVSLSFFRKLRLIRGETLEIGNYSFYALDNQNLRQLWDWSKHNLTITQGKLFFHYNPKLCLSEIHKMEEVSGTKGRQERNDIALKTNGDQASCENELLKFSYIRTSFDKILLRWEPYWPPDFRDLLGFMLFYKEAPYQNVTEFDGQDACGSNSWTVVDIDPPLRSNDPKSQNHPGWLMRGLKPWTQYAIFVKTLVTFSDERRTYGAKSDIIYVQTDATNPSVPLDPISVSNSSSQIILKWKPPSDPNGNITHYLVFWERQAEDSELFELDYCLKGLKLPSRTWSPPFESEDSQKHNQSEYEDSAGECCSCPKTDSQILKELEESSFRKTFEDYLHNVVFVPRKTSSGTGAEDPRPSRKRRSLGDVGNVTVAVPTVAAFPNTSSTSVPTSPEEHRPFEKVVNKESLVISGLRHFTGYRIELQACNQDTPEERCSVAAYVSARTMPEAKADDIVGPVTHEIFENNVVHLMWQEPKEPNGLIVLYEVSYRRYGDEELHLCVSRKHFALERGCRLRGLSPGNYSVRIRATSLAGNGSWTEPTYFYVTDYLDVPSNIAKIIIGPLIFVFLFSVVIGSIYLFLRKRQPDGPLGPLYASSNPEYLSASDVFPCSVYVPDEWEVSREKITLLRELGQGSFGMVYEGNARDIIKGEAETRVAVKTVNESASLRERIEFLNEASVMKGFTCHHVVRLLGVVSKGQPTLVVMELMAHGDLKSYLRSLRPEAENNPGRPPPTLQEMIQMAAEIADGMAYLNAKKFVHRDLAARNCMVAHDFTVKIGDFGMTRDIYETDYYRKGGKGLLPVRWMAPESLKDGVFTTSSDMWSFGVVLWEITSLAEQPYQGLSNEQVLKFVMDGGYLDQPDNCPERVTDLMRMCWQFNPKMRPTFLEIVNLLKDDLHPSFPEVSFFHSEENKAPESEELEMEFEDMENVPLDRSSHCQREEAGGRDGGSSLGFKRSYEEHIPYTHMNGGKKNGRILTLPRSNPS
Read-out: enzyme activity
Mode: inhibitor
Concentration: 0.5 µM
Baseline: control
Quantity: remaining activity
CN(C)S(=O)(=O)c1ccc2c(c1)/C(=C/c1cc3c([nH]1)CCCC3)C(=O)N2: 91.6%
O=C1NC(=O)c2c1c1c3ccccc3[nH]c1c1[nH]c3cc(Br)ccc3c21: 86.4%
O=c1cc(N2CCOCC2)oc2c(-c3ccccc3)cccc12: 104%
N#Cc1cnc2cnc(NCc3cccnc3)cc2c1Nc1ccc(F)c(Cl)c1: 85.1%
Cc1ccc(S(=O)(=O)/C=C/C#N)cc1: 108%
O=Nc1c(-c2c(O)[nH]c3cc(Br)ccc23)[nH]c2ccccc12: 92.5%
COc1ccc2c(c1)c(C1=C(c3c[nH]c4ccccc34)C(=O)NC1=O)cn2CCCN(C)C: 94.1%
O=C1Nc2ccc(Br)cc2/C1=C/c1cc2c([nH]1)CCCC2: 85.8%
c1ccc(-c2n[nH]c3c2oc2ccccc23)cc1: 94.4%
Oc1cccc(-c2nc(N3CCOCC3)c3oc4ncccc4c3n2)c1: 98.6%
COc1cccc(-c2cc(=O)c3ccccc3o2)c1N: 106%
CN1CCN(c2ccc3nc(-c4c(N)c5c(F)cccc5[nH]c4=O)[nH]c3c2)CC1: 84%
O=C1NC(=O)c2c1c1c3ccccc3[nH]c1n1cncc21: 17.9%
CCCNC(=O)Nc1ccc(Oc2ncnc3cc(OC)c(OC)cc23)cc1Cl: 92.4%
c1ccc2c(-c3ccncc3)c[nH]c2c1: 90.5%
O=C1Cc2c([nH]c3ccc(Br)cc23)-c2ccccc2N1: 101%
O=C1Nc2ccccc2/C1=C\c1c(Cl)[nH]c2ccccc12: 91.2%

A few entries again (set 4):
O=Nc1c(-c2c(O)[nH]c3cc(Br)ccc23)[nH]c2ccccc12: 92.5%
COc1ccc2c(c1)c(C1=C(c3c[nH]c4ccccc34)C(=O)NC1=O)cn2CCCN(C)C: 94.1%
